Assay results from different studies.
Every numbered part comes from another study and shows a few of its results, in no order. Several values in a cell are separate wells, animals, samples, runs or records.
UniProt Q15759, sequence (whole entry, looked up): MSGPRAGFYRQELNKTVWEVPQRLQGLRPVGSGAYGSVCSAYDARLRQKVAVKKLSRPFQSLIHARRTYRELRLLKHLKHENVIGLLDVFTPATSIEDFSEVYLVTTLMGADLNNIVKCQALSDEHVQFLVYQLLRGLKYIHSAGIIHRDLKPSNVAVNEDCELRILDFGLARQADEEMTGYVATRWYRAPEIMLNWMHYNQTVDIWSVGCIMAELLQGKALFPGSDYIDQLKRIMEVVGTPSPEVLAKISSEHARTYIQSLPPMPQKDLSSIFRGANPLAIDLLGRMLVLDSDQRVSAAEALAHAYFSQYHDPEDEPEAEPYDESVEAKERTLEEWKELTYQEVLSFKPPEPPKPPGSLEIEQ
UniProt P17948, sequence (whole entry, looked up): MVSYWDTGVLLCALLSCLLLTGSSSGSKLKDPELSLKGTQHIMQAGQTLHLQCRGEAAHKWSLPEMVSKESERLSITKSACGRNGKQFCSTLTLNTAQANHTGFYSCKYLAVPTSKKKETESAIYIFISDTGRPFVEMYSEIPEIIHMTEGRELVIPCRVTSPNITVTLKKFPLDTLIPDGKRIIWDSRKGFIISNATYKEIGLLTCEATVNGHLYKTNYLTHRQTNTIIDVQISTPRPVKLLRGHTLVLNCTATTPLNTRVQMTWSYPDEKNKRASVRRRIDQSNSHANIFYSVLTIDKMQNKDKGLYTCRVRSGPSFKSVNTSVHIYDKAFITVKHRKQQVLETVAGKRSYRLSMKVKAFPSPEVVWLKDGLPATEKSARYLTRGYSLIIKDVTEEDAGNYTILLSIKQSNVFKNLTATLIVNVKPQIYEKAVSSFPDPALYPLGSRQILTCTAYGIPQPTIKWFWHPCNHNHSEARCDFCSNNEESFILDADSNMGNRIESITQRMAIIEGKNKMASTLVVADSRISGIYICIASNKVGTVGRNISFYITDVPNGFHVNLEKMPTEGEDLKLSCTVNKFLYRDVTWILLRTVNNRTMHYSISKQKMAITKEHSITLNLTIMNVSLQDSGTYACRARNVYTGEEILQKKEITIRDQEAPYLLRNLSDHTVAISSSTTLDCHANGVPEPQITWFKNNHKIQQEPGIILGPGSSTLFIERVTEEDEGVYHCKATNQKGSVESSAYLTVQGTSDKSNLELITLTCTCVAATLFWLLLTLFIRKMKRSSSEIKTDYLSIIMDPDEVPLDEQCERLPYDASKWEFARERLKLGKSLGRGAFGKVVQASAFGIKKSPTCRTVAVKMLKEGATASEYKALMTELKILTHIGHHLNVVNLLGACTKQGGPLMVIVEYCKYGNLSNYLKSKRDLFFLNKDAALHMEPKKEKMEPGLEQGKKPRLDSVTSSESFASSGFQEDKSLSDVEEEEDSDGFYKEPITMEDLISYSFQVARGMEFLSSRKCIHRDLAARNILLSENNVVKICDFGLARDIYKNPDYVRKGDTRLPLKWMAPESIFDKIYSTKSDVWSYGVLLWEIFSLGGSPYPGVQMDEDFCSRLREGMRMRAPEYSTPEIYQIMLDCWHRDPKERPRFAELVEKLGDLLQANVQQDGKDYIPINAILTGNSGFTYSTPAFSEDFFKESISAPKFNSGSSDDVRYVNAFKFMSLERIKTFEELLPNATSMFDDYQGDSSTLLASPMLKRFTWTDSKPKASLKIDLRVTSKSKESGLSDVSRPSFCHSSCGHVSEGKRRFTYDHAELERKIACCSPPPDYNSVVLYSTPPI
UniProt Q15375, sequence (whole entry, looked up): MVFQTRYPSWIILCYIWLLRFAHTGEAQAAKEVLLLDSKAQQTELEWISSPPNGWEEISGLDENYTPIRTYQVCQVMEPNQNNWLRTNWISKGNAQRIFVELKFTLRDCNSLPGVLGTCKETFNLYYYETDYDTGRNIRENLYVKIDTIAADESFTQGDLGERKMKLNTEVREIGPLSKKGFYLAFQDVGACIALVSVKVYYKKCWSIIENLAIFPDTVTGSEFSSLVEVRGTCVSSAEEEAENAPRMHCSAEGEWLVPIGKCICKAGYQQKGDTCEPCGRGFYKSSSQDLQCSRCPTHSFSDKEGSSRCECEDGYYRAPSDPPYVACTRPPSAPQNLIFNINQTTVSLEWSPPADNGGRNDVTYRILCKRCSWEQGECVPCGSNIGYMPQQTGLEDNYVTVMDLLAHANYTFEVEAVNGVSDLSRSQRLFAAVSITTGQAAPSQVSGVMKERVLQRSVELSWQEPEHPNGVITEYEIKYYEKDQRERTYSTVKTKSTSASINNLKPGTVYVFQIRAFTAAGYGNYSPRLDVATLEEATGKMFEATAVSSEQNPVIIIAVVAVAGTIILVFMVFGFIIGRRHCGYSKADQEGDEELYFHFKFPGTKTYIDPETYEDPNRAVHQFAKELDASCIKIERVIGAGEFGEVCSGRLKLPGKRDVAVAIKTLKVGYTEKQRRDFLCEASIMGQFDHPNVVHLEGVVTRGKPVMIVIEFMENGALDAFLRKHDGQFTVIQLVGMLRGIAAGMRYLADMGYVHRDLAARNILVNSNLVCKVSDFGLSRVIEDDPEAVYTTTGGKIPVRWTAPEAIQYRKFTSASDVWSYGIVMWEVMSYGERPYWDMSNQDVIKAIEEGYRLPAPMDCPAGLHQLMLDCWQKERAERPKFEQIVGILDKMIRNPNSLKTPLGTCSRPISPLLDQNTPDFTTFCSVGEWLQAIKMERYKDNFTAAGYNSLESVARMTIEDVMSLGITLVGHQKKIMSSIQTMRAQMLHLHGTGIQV
UniProt P28482, sequence (whole entry, looked up): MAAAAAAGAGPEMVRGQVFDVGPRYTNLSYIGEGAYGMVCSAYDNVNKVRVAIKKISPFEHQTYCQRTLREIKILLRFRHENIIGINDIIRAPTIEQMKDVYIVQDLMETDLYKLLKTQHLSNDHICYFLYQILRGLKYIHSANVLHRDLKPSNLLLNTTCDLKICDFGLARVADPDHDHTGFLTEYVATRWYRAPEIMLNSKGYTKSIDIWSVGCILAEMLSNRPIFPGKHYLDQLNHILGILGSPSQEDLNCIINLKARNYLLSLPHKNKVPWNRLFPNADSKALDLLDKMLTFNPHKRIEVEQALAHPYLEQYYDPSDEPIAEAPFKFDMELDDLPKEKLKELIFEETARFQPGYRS
UniProt P09769, sequence (whole entry, looked up): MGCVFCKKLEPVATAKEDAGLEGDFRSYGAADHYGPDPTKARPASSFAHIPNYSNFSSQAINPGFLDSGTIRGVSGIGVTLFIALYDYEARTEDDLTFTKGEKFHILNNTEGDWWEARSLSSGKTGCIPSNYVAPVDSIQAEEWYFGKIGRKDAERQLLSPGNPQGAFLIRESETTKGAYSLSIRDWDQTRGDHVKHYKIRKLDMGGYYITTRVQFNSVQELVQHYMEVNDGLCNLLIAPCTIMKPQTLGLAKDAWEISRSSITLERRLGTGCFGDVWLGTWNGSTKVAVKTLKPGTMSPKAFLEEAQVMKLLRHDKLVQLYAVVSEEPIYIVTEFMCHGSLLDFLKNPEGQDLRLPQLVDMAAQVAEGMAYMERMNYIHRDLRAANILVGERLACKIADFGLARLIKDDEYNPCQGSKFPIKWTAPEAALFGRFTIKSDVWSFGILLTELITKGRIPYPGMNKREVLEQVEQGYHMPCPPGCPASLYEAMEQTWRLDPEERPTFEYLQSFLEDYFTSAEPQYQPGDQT

Block 1 — method: in-cell ELISA
Structure (SMILES): CCN1CCN(Cc2ccc(COc3c(-c4c(C)c(F)cc5[nH]ncc45)c(C4CC4)cc4c(N5C[C@@H]6C[C@H]5CN6)nc(OC5CCOCC5)nc34)cc2)C(=O)C1
AsPC-1 (KRAS G12D); 10 nM, 24 h — phospho-ERK1/2 level: 107% and 102% and 99.5%.
For AsPC-1 (KRAS G12D); 30 nM, 24 h: phospho-ERK1/2 level read 105% and 98.5% and 109% and 104%.
AsPC-1 (KRAS G12D); 3 nM, 24 h — phospho-ERK1/2 level: 107% and 99.1% and 96.1% and 105%.
The phospho-ERK1/2 level was 2.3% and 1.4% and 2.6% and 3.9% (AsPC-1; 3 µM, 2 h).
The phospho-ERK1/2 level was 49.8% and 66% and 58.3% and 61.3% (AsPC-1; 30 nM, 2 h).
It gave 101% and 109% and 106% and 104% for phospho-ERK1/2 level (AsPC-1 (KRAS G12D); 300 pM, 24 h).
It gave 18.1% and 23.8% and 18.7% and 21.9% for phospho-ERK1/2 level (AsPC-1 (KRAS G12D); 10 µM, 24 h).
For AsPC-1 (KRAS G12D); 1 µM, 24 h: phospho-ERK1/2 level read 29.7% and 30% and 28.4% and 31.4%.

Block 2 — read-out: binding; method: NanoBRET; cell line: HEK293 (live); reading: lower = stronger binding
SMILES: CN1CCC[C@H]1COc1nc2c(c(N3CCN(C(=O)C(F)(F)F)[C@@H](CC#N)C3)n1)CCN(c1cccc3cccc(Cl)c13)C2
Target: GTPase HRas (HRAS, Homo sapiens, UniProt P01112)
0.5686 µM — target engagement: 110% and 101% and 104%.
0.09151 µM — target engagement: 99.9% and 96.2% and 95.1%.
1.046 µM — target engagement: 130% and 99.1% and 138%.
The target engagement was 193% and 127% and 202% (1.523 µM).

Block 3 — read-out: thermal unfolding; method: differential scanning fluorimetry; tested at: 5.5 µM; reading: higher = more unfolded
SMILES: C[C@@H]1CN(c2ccc(-c3cc(C(=O)NCCOCCOCCOCCOCCNC(=O)/C=C/c4[nH]cc(C(=O)N[C@@H](CC(N)=O)c5ccc(F)c(Cl)c5)c4-c4ccc(Cl)cc4F)ccc3F)cc2NC(=O)c2c[nH]c(=O)cc2C(F)(F)F)C[C@H](C)N1C
DCAF1: DDB1- and CUL4-associated factor 1 (DCAF1, Homo sapiens, UniProt Q9Y4B6)
UniProt Q9Y4B6, sequence (whole entry, looked up): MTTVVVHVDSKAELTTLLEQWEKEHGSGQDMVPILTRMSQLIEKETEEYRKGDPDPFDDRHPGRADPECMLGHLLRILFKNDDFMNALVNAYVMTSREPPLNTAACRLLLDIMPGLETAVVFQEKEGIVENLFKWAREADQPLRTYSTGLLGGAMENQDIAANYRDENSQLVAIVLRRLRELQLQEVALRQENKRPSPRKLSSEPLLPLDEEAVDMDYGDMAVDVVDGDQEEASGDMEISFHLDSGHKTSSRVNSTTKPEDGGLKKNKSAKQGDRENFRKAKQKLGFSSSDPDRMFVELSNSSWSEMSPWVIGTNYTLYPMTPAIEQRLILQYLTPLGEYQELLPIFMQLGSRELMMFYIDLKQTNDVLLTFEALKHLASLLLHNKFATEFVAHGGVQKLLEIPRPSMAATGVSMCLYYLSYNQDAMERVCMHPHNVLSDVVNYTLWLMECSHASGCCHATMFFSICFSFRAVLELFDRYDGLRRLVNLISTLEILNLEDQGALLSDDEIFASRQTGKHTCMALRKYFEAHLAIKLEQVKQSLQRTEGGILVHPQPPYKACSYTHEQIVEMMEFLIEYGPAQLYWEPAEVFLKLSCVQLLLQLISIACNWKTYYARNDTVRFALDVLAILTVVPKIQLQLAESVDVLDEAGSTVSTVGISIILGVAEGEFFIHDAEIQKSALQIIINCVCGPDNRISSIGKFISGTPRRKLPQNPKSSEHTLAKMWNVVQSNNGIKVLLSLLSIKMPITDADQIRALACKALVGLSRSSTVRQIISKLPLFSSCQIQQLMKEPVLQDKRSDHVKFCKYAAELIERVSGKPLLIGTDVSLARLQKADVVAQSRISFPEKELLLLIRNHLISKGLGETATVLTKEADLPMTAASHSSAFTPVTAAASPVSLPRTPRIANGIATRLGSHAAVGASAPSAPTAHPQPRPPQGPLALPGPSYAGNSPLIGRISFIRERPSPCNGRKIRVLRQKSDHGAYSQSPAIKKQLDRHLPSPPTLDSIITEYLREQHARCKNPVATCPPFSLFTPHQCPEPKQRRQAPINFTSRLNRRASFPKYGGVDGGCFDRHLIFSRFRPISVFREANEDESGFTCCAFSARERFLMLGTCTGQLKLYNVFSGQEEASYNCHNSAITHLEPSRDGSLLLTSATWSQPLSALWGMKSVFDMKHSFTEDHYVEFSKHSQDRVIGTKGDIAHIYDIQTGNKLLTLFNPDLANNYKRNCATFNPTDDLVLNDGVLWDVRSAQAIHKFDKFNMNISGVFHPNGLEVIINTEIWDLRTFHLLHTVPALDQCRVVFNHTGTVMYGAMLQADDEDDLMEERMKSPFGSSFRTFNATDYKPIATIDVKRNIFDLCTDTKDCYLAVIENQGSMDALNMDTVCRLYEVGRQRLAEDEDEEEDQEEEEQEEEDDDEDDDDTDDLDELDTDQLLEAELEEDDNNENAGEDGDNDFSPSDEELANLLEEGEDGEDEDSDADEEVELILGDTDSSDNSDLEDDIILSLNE
WDR5: WD repeat-containing protein 5 (WDR5, Homo sapiens, UniProt P61964)
For DCAF1; 39 °C: “SYPRO Orange fluorescence” read 11200 a.u.
For DCAF1; 44.6 °C: “SYPRO Orange fluorescence” read 12800 a.u.
It gave 38700 a.u. for “SYPRO Orange fluorescence” (WDR5; 79.41 °C).
DCAF1; 78.41 °C — “SYPRO Orange fluorescence”: 46800 a.u.
For DCAF1; 64.81 °C: “SYPRO Orange fluorescence” read 58500 a.u.
For WDR5; 69.61 °C: “SYPRO Orange fluorescence” read 15700 a.u.
It gave 31400 a.u. for “SYPRO Orange fluorescence” (DCAF1; 93.21 °C).
The “SYPRO Orange fluorescence” was 29400 a.u. (WDR5; 76.41 °C).

Block 4 — Structure (SMILES): O=C(Nc1ccccc1)Nc1cccc(Oc2ccc3nccn3n2)c1; tested at: 1 µM
For WNK2 (Homo sapiens, UniProt Q9Y3S1); binding: remaining binding read 100%.
MAPK11 (Homo sapiens, UniProt Q15759); binding, competition with immobilised ligand — remaining binding: 100%.
RET (Homo sapiens, UniProt P07949, M918T); binding — remaining binding: 73%.
For FLT1 (Homo sapiens, UniProt P17948); binding, competition with immobilised ligand: remaining binding read 3.2%.
It gave 98% for remaining binding (CDKL5 (Homo sapiens, UniProt O76039); binding).
DCLK2 (Homo sapiens, UniProt Q8N568); binding — remaining binding: 100%.
The remaining binding was 90% (EPHB4 (Homo sapiens, UniProt P54760); binding, competition with immobilised ligand).
For HCK (Homo sapiens, UniProt P08631); cell-free binding: remaining binding read 76%.
The remaining binding was 100% (PRKG2 (Homo sapiens, UniProt Q13237); binding).
The remaining binding was 100% (EPHA7 (Homo sapiens, UniProt Q15375); cell-free binding).
For ABL1 (Homo sapiens, UniProt P00519, T315I); binding: remaining binding read 93%.
For FGR (Homo sapiens, UniProt P09769); cell-free assay, competition with immobilised ligand: remaining binding read 82%.
For MAPK1 (Homo sapiens, UniProt P28482); binding: remaining binding read 100%.

Repeated from above (block 3):
It gave 38700 a.u. for “SYPRO Orange fluorescence” (WDR5; 79.41 °C).
DCAF1; 78.41 °C — “SYPRO Orange fluorescence”: 46800 a.u.
For DCAF1; 64.81 °C: “SYPRO Orange fluorescence” read 58500 a.u.
For WDR5; 69.61 °C: “SYPRO Orange fluorescence” read 15700 a.u.
It gave 31400 a.u. for “SYPRO Orange fluorescence” (DCAF1; 93.21 °C).
The “SYPRO Orange fluorescence” was 29400 a.u. (WDR5; 76.41 °C).
